Experimental data from different studies.
Compare with care: the assays were run in different laboratories. “And” joins repeats or separate records; there may be more than shown. ± gives the spread as reported. Where no end group is shown, it is not given here. [ ]: non-standard residue; d: D form.
SCRIB PDZ3 domain: Protein scribble homolog, PDZ3 domain (SCRIB, Homo sapiens, UniProt Q14160)
HLA class I histocompatibility antigen, A alpha chain allele A*02:01: HLA class I histocompatibility antigen, A alpha chain, allele A*02:01 (Homo sapiens, UniProt P04439)
HLA class I histocompatibility antigen, A alpha chain allele A*24:02: HLA class I histocompatibility antigen, A alpha chain, allele A*24:02 (Homo sapiens, UniProt P04439)

Molecule | target or system | assay | test system | setting | scale | quantity | result
VLQRHTTGKA | SCRIB PDZ3 domain | binding, fluorescence polarization | peptide, solution | Scribble PDZ3 domain |  | Kd | 100 µM
ITQLMPFGSL | HLA class I histocompatibility antigen, A alpha chain, allele A*01:01 (Homo sapiens, UniProt P04439) | conformational ELISA | peptide | concentration not given | relative to: positive control peptide, direction not given | binding score | 0%
colistin | Klebsiella pneumoniae | broth microdilution | clinical isolate RKI-No_268/15 |  |  | MIC | 32 µg/mL
alpinetin | Pancreatic alpha-amylase (AMY2, Sus scrofa, UniProt P00690) | enzyme activity |  | concentration not given, together with: CNP-G3 |  | inhibition | 34.1 ± 0.98%
Phosphate | Inorganic phosphate transporter PHO84 (PHO84, Saccharomyces cerevisiae, UniProt P25297) | uptake, substrate |  | 10 min, pH 7.4, together with: 1 mM NaCl |  | Km | 66 ± 30 µM
FMLGEFLKL | HLA class I histocompatibility antigen, A alpha chain allele A*02:01 | HLA-A2 stabilization, peptide titration | peptide, T2 | 20 h, 37 °C, together with: human β2-microglobulin 100 ng/mL | relative to: HIVpol reference peptide, lower is stronger | relative affinity | 1.5
methyl-β-cyclodextrin | Sodium- and chloride-dependent glycine transporter 1 (SLC6A9, Homo sapiens, UniProt P48067) | transport activity, [3H]glycine uptake |  | 3.5 mg/mL, 1 min, together with: glycine 600 µM | higher = more transport | glycine uptake rate | 46 a.u. and 46.1 a.u. and 65.3 a.u. and 65.2 a.u. and 45 a.u.
6-carboxyfluorescein | Solute carrier organic anion transporter family member 2A1 (SLCO2A1, Homo sapiens, UniProt Q92959, E465K) | compound uptake, substrate | HEK293F expressing SLCO2A1 E465K | 50 µM | relative to: wild type | uptake | 8.73% and 8.25% and 9.69%
Et-DADMe-ImmA | Aminodeoxyfutalosine nucleosidase (Helicobacter pylori, UniProt Q9ZMY2) | spectrophotometric coupled |  |  |  | forward isomerization rate k3 | 0.26 ± 0.15 min⁻¹
SLPDRILDA | HLA class I histocompatibility antigen, A alpha chain allele A*02:01 | HLA-A2 stabilization, peptide titration | peptide, T2 | 20 h, 37 °C, together with: human β2-microglobulin 100 ng/mL | relative to: HIVpol reference peptide, lower is stronger | relative affinity | 9.36
DFGRAKLL | HLA class I histocompatibility antigen, A alpha chain allele A*24:02 | conformational ELISA | peptide | concentration not given | relative to: positive control peptide, direction not given | binding score | 1.8%
GSGAGIATEV | human MAGI1-2/6 PDZ construct (MBP fusion) | surface plasmon resonance | peptide | concentration not given | higher = stronger binding | normalised SPR binding response | 3.7 normalised RU
QLMPFGSL | HLA class I histocompatibility antigen, A alpha chain allele A*02:01 | conformational ELISA | peptide | concentration not given | relative to: positive control peptide, direction not given | binding score | 14.9%
11-deoxycorticosterone | CYP11B2 (human) | substrate binding, stopped-flow global kinetic fitting | purified enzyme | 3-state induced fit model, together with: equimolar adrenodoxin |  | rate constant k2 | 0.00487 ± 0.0867 s⁻¹
demethoxycurcumin | Cyclin-dependent kinase 7 (CDK7, Homo sapiens, UniProt P50613) | enzyme activity, inhibitor, ADP-Glo kinase |  | 10 µM |  | inhibition | 50.1 ± 5.4%
[Aib][Aib]IA (Aib = CC(C)(N)C(=O)O) | Amyloid-beta precursor protein (APP, Homo sapiens, UniProt P05067) | aggregation, ThT fluorescence |  | 24 h, 37 °C, Aβ to peptide ratio 1:1, together with: Aβ1–42 2 µM | relative to: Aβ1–42 alone, lower is stronger inhibition | ThT fluorescence | 82.5%
LMPFGSLL | HLA class I histocompatibility antigen, A alpha chain allele A*02:01 | conformational ELISA | peptide | concentration not given | relative to: positive control peptide, direction not given | binding score | 10.2%

Molecule | target or system | assay | test system | setting | scale | quantity | result
RMARDPQRF | human HLA-A24 (A*2401) | peptide-MHC binding, iTopia initial binding | peptide, plate-bound HLA heavy chain | 11 µM, 18 h, 21 °C | relative to: allele-matched positive control peptide | binding | 112%
DQVNTVGIPI | SCRIB PDZ3 domain | binding, fluorescence polarization | peptide, solution | Scribble PDZ3 domain |  | Kd | 100 µM
TFQKNRLFF | human HLA-A24 (A*2401) | peptide-MHC binding, iTopia initial binding | peptide, plate-bound HLA heavy chain | 11 µM, 18 h, 21 °C | relative to: allele-matched positive control peptide | binding | 138%
GSGAGICTIV | human SCRIB PDZ3-4 tandem (MBP fusion) | surface plasmon resonance | peptide | concentration not given | higher = stronger binding | normalised SPR binding response | 43.3 normalised RU
DFIPPYVDFPPRLPIFR | Catenin beta-1 (CTNNB1, Homo sapiens, UniProt P35222) | immunoblot | peptide, DLD-1, cytosolic fraction |  | relative to: non-transfected cells | degradation | > 50%
LIMQLMPFGCL | HLA class I histocompatibility antigen, A alpha chain allele A*24:02 | conformational ELISA | peptide | concentration not given | relative to: positive control peptide, direction not given | binding score | 12.7%
NSVVLYSTPPI | SCRIB PDZ3 domain | binding, fluorescence polarization | peptide, solution | Scribble PDZ3 domain |  | Kd | 100 µM
Peginesatide | UT7/EPO | microarray, measured: SOCS3 mRNA (probe set 227697_at) |  | 20 nM, 90 min | relative to: vehicle | mRNA level | 35.1 fold
STVQLIMQLM | HLA class I histocompatibility antigen, A alpha chain allele A*24:02 | conformational ELISA | peptide | concentration not given | relative to: positive control peptide, direction not given | binding score | 20.3%
LMDLSTTEV | HLA class I histocompatibility antigen, A alpha chain allele A*02:01 | HLA-A2 stabilization, peptide titration | peptide, T2 | 20 h, 37 °C, together with: human β2-microglobulin 100 ng/mL | relative to: HIVpol reference peptide, lower is stronger | relative affinity | 0.43
AEKKKSKKSV | SCRIB PDZ3 domain | binding, fluorescence polarization | peptide, solution | Scribble PDZ3 domain |  | Kd | 100 µM
QLMPFGSLL | HLA class I histocompatibility antigen, A alpha chain allele A*02:01 | conformational ELISA | peptide | concentration not given | relative to: positive control peptide, direction not given | binding score | 88.8%
CTIL | Candida albicans protein farnesyltransferase | peptide farnesylation, substrate | peptide | pH 7.5, enzyme 50 to 100 nM, together with: C15-Alk 4 µM |  | kcat | 1.3 s⁻¹
alkynyl-farnesyl pyrophosphate | Protein farnesyltransferase (Rattus norvegicus, UniProt Q02293+Q04631) | peptide farnesylation, substrate, fluorescence anisotropy |  | together with: FAM-RHEB peptide |  | Km | 0.022 µM
BzATP | P2X purinoceptor 7 (P2rx7, Rattus norvegicus, UniProt Q64663, I214A/Q143A) | ion current, agonist, two-electrode voltage clamp | Xenopus oocytes | 11 µM |  | normalized current | 0.15 and 0.1 and 0.04
milbemycin oxime | CDR1 (Candida albicans, UniProt Q5ANA3) | binding, microscale thermophoresis |  | 306 pM |  | fraction bound | 1.03%
TVQLIMQLMPF | HLA class I histocompatibility antigen, A alpha chain allele A*24:02 | conformational ELISA | peptide | concentration not given | relative to: positive control peptide, direction not given | binding score | 22.2%

A few entries again:
Molecule | target or system | assay | test system | setting | scale | quantity | result
LIMQLMPFGCL | HLA class I histocompatibility antigen, A alpha chain allele A*24:02 | conformational ELISA | peptide | concentration not given | relative to: positive control peptide, direction not given | binding score | 12.7%
NSVVLYSTPPI | SCRIB PDZ3 domain | binding, fluorescence polarization | peptide, solution | Scribble PDZ3 domain |  | Kd | 100 µM
Peginesatide | UT7/EPO | microarray, measured: SOCS3 mRNA (probe set 227697_at) |  | 20 nM, 90 min | relative to: vehicle | mRNA level | 35.1 fold
STVQLIMQLM | HLA class I histocompatibility antigen, A alpha chain allele A*24:02 | conformational ELISA | peptide | concentration not given | relative to: positive control peptide, direction not given | binding score | 20.3%
